{"data": "Results pooled from the literature", "note": "Each numbered part is a random draw from the data of one study; scales do not carry over between parts. Several values in a cell are separate wells, animals, samples, runs or records.", "chain of UniProt Q15418 (whole entry, looked up)": "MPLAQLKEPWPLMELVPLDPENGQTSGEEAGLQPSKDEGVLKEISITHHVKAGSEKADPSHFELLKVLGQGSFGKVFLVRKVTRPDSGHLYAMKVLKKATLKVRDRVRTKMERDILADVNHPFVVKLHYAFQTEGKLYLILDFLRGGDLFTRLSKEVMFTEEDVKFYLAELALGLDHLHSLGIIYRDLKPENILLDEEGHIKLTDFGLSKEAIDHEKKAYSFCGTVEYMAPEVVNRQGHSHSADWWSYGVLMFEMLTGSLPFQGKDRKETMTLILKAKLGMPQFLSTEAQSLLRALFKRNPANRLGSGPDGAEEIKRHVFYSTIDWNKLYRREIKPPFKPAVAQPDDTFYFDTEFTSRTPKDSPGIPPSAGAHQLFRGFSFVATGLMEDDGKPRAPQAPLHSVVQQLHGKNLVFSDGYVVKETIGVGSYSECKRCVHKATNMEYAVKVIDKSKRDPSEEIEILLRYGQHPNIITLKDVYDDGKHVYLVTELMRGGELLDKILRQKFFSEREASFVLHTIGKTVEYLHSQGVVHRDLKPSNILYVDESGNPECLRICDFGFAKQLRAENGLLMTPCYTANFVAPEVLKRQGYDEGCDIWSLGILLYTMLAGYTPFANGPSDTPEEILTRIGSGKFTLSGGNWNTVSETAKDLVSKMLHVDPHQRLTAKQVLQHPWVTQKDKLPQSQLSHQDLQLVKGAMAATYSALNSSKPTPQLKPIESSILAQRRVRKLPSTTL", "chain of UniProt P07949 (whole entry, unmodified, looked up)": "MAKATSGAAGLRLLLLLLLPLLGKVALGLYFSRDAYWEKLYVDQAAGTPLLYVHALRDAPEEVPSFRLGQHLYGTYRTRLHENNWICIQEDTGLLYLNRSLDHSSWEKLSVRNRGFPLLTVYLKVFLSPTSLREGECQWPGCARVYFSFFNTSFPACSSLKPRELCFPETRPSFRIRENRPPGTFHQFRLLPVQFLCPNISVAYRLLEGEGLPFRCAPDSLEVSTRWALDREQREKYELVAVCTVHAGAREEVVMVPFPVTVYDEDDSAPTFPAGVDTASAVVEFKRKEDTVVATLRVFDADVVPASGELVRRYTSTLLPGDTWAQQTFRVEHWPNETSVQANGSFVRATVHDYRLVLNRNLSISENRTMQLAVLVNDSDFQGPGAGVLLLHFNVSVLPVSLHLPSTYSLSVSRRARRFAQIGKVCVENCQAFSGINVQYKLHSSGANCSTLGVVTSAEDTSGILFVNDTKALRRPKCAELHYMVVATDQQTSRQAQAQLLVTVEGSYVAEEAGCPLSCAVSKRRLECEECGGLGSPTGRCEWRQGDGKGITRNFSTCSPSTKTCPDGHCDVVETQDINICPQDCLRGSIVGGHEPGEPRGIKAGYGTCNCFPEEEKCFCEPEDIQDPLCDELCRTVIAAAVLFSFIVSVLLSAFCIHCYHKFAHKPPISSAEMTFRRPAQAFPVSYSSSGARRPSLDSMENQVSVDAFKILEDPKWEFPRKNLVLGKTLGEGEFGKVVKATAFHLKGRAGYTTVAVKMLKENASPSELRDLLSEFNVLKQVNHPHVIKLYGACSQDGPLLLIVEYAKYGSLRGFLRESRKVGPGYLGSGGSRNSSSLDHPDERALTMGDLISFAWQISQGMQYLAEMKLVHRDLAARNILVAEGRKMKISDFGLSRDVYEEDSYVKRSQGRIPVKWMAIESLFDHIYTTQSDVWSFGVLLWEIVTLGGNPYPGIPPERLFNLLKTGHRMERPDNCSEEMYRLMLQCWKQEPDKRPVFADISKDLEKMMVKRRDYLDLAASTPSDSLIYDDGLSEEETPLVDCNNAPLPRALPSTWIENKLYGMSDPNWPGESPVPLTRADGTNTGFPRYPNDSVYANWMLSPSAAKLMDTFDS", "chain of UniProt O43283 (whole entry, looked up)": "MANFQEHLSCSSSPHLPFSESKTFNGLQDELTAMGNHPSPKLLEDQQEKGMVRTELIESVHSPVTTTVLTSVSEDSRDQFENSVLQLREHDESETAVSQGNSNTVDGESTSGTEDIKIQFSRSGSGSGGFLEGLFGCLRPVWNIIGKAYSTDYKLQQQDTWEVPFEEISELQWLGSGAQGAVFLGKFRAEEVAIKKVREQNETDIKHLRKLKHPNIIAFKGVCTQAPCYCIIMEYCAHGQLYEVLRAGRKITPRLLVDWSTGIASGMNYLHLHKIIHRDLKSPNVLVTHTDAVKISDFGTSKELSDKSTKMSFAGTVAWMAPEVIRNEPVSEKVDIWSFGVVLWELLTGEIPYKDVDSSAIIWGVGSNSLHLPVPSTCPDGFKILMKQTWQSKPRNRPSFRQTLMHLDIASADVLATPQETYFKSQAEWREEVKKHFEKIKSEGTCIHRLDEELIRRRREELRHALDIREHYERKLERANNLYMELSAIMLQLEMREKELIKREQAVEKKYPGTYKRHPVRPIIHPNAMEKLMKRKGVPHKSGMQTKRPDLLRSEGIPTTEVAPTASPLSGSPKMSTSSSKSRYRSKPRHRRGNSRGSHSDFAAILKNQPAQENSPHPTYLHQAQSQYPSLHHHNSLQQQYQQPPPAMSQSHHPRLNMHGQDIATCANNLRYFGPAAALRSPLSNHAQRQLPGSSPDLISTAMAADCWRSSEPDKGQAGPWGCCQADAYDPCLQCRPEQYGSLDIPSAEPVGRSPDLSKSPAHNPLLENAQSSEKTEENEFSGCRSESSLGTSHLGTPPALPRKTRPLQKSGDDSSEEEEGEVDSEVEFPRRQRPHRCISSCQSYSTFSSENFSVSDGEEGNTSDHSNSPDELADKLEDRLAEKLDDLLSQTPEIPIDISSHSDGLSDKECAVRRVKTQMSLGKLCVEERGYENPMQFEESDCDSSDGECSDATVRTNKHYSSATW", "chain of UniProt Q16539 (whole entry, looked up)": "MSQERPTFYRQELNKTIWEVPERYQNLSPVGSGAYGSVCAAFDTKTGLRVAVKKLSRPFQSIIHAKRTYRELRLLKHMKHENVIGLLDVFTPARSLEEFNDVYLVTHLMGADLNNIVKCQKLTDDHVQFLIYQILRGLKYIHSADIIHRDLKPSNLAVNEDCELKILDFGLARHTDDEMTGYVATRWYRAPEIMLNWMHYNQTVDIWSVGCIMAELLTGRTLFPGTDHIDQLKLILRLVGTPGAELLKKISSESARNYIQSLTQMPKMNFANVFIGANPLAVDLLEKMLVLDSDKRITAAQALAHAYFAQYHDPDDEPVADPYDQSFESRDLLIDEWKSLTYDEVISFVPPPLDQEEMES", "chain of UniProt Q8TD19 (whole entry, looked up)": "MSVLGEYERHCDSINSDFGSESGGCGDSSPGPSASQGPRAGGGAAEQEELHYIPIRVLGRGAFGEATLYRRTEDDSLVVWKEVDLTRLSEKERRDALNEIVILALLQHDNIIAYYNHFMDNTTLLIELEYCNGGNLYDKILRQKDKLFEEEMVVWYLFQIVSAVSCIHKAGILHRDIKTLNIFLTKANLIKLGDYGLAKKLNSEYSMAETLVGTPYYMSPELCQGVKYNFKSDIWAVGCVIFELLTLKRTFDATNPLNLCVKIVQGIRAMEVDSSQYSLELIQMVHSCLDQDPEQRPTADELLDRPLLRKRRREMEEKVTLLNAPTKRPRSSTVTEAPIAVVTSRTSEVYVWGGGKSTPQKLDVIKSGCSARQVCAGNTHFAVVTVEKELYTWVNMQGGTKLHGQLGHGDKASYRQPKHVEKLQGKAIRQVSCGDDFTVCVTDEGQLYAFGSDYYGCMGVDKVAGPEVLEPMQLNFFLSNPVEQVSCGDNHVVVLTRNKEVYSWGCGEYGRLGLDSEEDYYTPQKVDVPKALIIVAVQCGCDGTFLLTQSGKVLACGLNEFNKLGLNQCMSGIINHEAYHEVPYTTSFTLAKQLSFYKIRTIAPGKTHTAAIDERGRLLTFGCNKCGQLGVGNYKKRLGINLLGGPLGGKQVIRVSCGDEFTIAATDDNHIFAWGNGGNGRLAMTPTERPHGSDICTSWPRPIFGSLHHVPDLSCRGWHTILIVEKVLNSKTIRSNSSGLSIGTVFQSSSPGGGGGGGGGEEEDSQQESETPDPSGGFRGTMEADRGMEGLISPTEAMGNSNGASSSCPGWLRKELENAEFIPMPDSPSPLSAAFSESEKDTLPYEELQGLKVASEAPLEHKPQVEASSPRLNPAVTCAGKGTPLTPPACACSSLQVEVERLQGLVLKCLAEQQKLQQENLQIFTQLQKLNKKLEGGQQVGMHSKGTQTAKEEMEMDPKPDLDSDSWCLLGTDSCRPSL", "chain of UniProt P49840 (whole entry, looked up)": "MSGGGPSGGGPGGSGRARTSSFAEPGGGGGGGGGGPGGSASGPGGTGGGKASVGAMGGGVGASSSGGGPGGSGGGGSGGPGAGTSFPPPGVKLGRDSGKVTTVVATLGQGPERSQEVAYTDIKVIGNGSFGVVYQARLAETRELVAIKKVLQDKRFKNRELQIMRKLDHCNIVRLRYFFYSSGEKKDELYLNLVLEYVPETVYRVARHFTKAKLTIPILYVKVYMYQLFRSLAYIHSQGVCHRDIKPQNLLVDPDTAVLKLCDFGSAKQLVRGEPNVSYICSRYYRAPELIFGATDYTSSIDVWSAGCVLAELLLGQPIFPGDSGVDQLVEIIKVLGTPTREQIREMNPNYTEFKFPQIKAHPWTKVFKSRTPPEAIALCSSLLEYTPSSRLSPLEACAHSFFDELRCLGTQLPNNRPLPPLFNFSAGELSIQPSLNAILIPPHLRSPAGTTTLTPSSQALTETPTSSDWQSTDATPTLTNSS", "chain of UniProt P46734 (whole entry, looked up)": "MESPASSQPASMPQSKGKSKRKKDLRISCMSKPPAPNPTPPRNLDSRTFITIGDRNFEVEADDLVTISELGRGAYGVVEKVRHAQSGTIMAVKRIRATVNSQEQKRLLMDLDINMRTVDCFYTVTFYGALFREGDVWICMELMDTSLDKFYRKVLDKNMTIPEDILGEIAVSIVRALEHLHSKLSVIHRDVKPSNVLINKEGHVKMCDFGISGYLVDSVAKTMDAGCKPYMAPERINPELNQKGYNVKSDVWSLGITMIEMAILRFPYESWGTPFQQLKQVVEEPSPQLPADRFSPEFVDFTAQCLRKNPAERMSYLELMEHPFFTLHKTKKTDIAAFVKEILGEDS"}
{"data": "Series 1", "Compound": "COc1ccc(COc2ccc(Cc3cnc(N)nc3N)cc2OC)cc1", "read-out": "enzyme activity", "mode": "inhibitor", "tested at": "0.5 µM", "reference": "control"}
{"target": "GSK3A (Homo sapiens, UniProt P49840)", "remaining activity [%]": 108}
{"target": "PIM2 (Homo sapiens, UniProt Q9P1W9)", "remaining activity [%]": 107}
{"target": "NUAK1 (Homo sapiens, UniProt O60285)", "remaining activity [%]": 106}
{"target": "PAK2 (Homo sapiens, UniProt Q13177)", "remaining activity [%]": 95.3}
{"target": "SRPK3 (Homo sapiens, UniProt Q9UPE1)", "remaining activity [%]": 102}
{"target": "RPS6KA1 (Homo sapiens, UniProt Q15418)", "remaining activity [%]": 92.7}
{"data": "Series 2", "Structure (SMILES)": "CC(C)n1cnc(-c2ccc(F)cc2)c1-c1ncc(C(=O)Nc2ccc(N3CCN(C)CC3)cc2)[nH]1", "technique": "Phase 2a trial", "species": "idiopathic pulmonary fibrosis patients"}
{"test": "refers to: vision blurred", "conditions": "60 mg once daily, grade 3 maximum intensity", "patients with adverse events [%]": 0}
{"test": "refers to: tri-iodothyronine increased", "conditions": "60 mg once daily, grade 1 maximum intensity", "patients with adverse events [%]": 0}
{"test": "refers to: blood alkaline phosphatase increased", "conditions": "60 mg once daily, grade 2 maximum intensity", "patients with adverse events [%]": 0}
{"test": "refers to: neutrophil count increased", "conditions": "60 mg once daily, grade 3 maximum intensity", "patients with adverse events [%]": 0}
{"test": "refers to: vision blurred", "conditions": "60 mg once daily, grade 2 maximum intensity", "patients with adverse events [%]": 0}
{"test": "refers to: muscular weakness", "conditions": "30 mg once daily, grade 5 maximum intensity", "patients with adverse events [%]": 0}
{"test": "refers to: vision blurred", "conditions": "60 mg once daily, grade 4 maximum intensity", "patients with adverse events [%]": 0}
{"test": "refers to: oral herpes", "conditions": "oral, 30 mg once daily, grade 3 maximum intensity", "patients with adverse events [%]": 0}
{"test": "refers to: muscular weakness", "conditions": "60 mg once daily, grade 2 maximum intensity", "patients with adverse events [%]": 0}
{"test": "refers to: blood alkaline phosphatase increased", "conditions": "60 mg once daily, grade 1 maximum intensity", "patients with adverse events [%]": 0}
{"test": "refers to: infections and infestations", "conditions": "dose not given, grade 4 maximum intensity, all arms", "patients with adverse events [%]": 0}
{"test": "refers to: gamma-glutamyltransferase increased", "conditions": "dose not given, grade 4 maximum intensity, all arms", "patients with adverse events [%]": 0}
{"data": "Series 3", "Compound": "CN(C)C(=O)Cn1cc(-c2nc(C3(c4ccc(-c5cnc(N)nc5)cc4)CC3)no2)cn1", "read-out": "cell-free assay", "technique": "competition with immobilised ligand", "tested at": "1 µM"}
{"target": "MAP2K3 (Homo sapiens, UniProt P46734)", "remaining binding [%]": 71}
{"target": "CLK3 (Homo sapiens, UniProt P49761)", "remaining binding [%]": 100}
{"target": "RET (Homo sapiens, UniProt P07949, V804L)", "remaining binding [%]": 100}
{"target": "MAPK14 (Homo sapiens, UniProt Q16539)", "remaining binding [%]": 100}
{"target": "AXL (Homo sapiens, UniProt P30530)", "remaining binding [%]": 93}
{"target": "RET (Homo sapiens, UniProt P07949)", "remaining binding [%]": 94}
{"target": "NEK9 (Homo sapiens, UniProt Q8TD19)", "remaining binding [%]": 100}
{"target": "Tyrosine-protein kinase ABL1, non-phosphorylated (ABL1, Homo sapiens, UniProt P00519, Q252H)", "remaining binding [%]": 48}
{"target": "MAP3K13 (Homo sapiens, UniProt O43283)", "remaining binding [%]": 100}
{"target": "PRKAA2 (Homo sapiens, UniProt P54646)", "remaining binding [%]": 86}
{"target": "MST1R (Homo sapiens, UniProt Q04912)", "remaining binding [%]": 95}
{"target": "Ribosomal protein S6 kinase alpha-1, N-terminal kinase domain (RPS6KA1, Homo sapiens, UniProt Q15418)", "remaining binding [%]": 99}
{"target": "PRKCH (Homo sapiens, UniProt P24723)", "remaining binding [%]": 91}
{"target": "AKT3 (Homo sapiens, UniProt Q9Y243)", "remaining binding [%]": 87}
{"target": "MAP2K5 (Homo sapiens, UniProt Q13163)", "remaining binding [%]": 72}
{"target": "IRAK1 (Homo sapiens, UniProt P51617)", "remaining binding [%]": 77}
{"data": "Series 4", "cell line": "mouse MPNST tumor cells", "technique": "high-content immunofluorescence imaging", "refers to": "nuclear SOX9", "tested at": "10 µM", "time": "12 h", "setting": "mean of 2 replicates", "reference": "DMSO control", "direction": "higher = more nuclear SOX9"}
{"SMILES": "Nc1ncnc2c1ncn2C1OC(C(=O)N2CCN(CC(=O)Nc3cccc4c3CNC4=O)CC2)C(O)C1O (stereo not shown)", "nuclear SOX9 intensity": "121 % of DMSO"}
{"SMILES": "C[C@@H](CN1CCC(Cc2ccccc2)CC1)[C@@H](O)c1ccc(O)cc1", "nuclear SOX9 intensity": "103 % of DMSO"}
{"SMILES": "NC1CCN(c2nc3c(cc2F)c(=O)c(C(=O)O)cn3-c2ccc(F)cc2F)C1 (stereo not shown)", "nuclear SOX9 intensity": "102 % of DMSO"}
{"SMILES": "O=C(Nc1cccc(Br)c1)c1cccc(S(=O)(=O)N2CCCCCC2)c1", "nuclear SOX9 intensity": "166 % of DMSO"}
{"SMILES": "COc1ccc(/C=C/C(=O)Nc2ccccc2C(=O)O)cc1OC", "nuclear SOX9 intensity": "95.2 % of DMSO and 102 % of DMSO"}
{"SMILES": "Cc1cc(C(C)Nc2ccc(F)c(-c3cc(C)c(C(=O)NC4(C(=O)O)CC4)c(C)c3)c2)ccc1Cl (stereo not shown)", "nuclear SOX9 intensity": "88.8 % of DMSO"}
{"SMILES": "O=C(Nc1ccc(C(O)(C(F)(F)F)C(F)(F)F)cc1)c1ccc(C(F)(F)F)cc1", "nuclear SOX9 intensity": "99.6 % of DMSO"}
{"SMILES": "O=C1COc2nccc(-c3ccccc3F)c2CN1Cc1cc(C(F)(F)F)cc(C(F)(F)F)c1", "nuclear SOX9 intensity": "111 % of DMSO"}
{"SMILES": "Cn1cnc2c1c(=O)[nH]c(=O)n2C", "nuclear SOX9 intensity": "99.8 % of DMSO"}
{"note": "Some of these lines once more (series 4):"}
{"SMILES": "Nc1ncnc2c1ncn2C1OC(C(=O)N2CCN(CC(=O)Nc3cccc4c3CNC4=O)CC2)C(O)C1O (stereo not shown)", "nuclear SOX9 intensity": "121 % of DMSO"}
{"SMILES": "C[C@@H](CN1CCC(Cc2ccccc2)CC1)[C@@H](O)c1ccc(O)cc1", "nuclear SOX9 intensity": "103 % of DMSO"}
{"SMILES": "Cc1cc(C(C)Nc2ccc(F)c(-c3cc(C)c(C(=O)NC4(C(=O)O)CC4)c(C)c3)c2)ccc1Cl (stereo not shown)", "nuclear SOX9 intensity": "88.8 % of DMSO"}
{"SMILES": "O=C(Nc1cccc(Br)c1)c1cccc(S(=O)(=O)N2CCCCCC2)c1", "nuclear SOX9 intensity": "166 % of DMSO"}
{"SMILES": "COc1ccc(/C=C/C(=O)Nc2ccccc2C(=O)O)cc1OC", "nuclear SOX9 intensity": "95.2 % of DMSO and 102 % of DMSO"}
{"SMILES": "Cn1cnc2c1c(=O)[nH]c(=O)n2C", "nuclear SOX9 intensity": "99.8 % of DMSO"}
{"SMILES": "O=C(Nc1ccc(C(O)(C(F)(F)F)C(F)(F)F)cc1)c1ccc(C(F)(F)F)cc1", "nuclear SOX9 intensity": "99.6 % of DMSO"}
